Results from different studies.
Protocols differ between the studies behind these lines. Numbers after ± are the reported error.
UCHL1: Ubiquitin carboxyl-terminal hydrolase isozyme L1 (UCHL1, Homo sapiens, UniProt P09936)
Chain of UniProt P09936 (whole entry, looked up): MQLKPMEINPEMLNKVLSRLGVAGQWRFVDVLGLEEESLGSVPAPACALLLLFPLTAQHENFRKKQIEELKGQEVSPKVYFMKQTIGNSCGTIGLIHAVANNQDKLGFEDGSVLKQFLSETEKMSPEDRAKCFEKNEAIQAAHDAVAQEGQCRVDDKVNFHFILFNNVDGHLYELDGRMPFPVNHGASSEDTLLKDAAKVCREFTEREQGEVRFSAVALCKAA

SMILES	target or system	test	system	setting	quantity	result
Cc1cc(C)c(NC(=O)C(C#N)=Cc2cc(F)ccc2F)c(C)c1	UCHL1	covalent, intact protein LC-MS	–	12.5 µM	labelling	33.5%
Cc1ccc(O)c(-n2nc3ccccc3n2)c1	–	exposure assessment	human, age 16-21 years	foundation	mean daily dermal uptake	92.7 ng/kg body weight/day
C=CC(=O)N(C)CCOc1c(N)ncnc1-c1cc(F)cc(NC(=O)c2ccc(C3CC3)cc2F)c1C	–	–	human, whole blood	oral, 200 mg, single ascending dose	mean residence time	3.62 h
N#Cc1ccc2c(c1)[C@H]1CCCN(C(=O)c3ccc4[nH]cnc4c3)[C@H]1C2	–	–	human	10 mg, day 7	mean ACTH level	6.3 pmol/L
CC=CC1CCC(C2CCC(CCC)CC2)CC1 (stereo not drawn)	–	–	human mother-newborn pairs, cord serum	–	mean serum concentration	1.51 ng/mL
N#CC(=Cc1cccc(O)c1)C(=O)Nc1ccccc1C(F)(F)F	UCHL1	covalent, intact protein LC-MS	–	12.5 µM	labelling	9.56%
CCCCc1ccc(C#Cc2ccc(OCC)cc2)cc1	–	–	human mother-newborn pairs, maternal serum	–	mean serum concentration	0.4 ng/mL
Cc1ccc(Sc2ccccc2N2CCNCC2)c(C)c1	–	–	healthy male humans fasted, plasma	oral, 10 mg single	mean AUC(0-168 h)	290 ng·h/mL
Cn1cc(-c2cn3nccc3c(-c3cnn([C@]4(CC#N)C[C@@H](C#N)C4)c3)n2)cn1	–	–	healthy human fasted	1600 mg single dose	mean residence time	9.4 h
C[C@@H](O)CCOC(=O)C[C@@H](C)O	–	–	human	oral drink, dose not given, 60 min post dose, mean	mean arterial pressure	80 mmHg
CCc1ccc(C(=O)Oc2ccc(C#N)c(F)c2)cc1	–	–	human mother-newborn pairs, cord serum	–	mean serum concentration	2.34 ng/mL
C[C@H](CCC(=O)O)[C@H]1CC[C@H]2[C@@H]3[C@H](O)C[C@@H]4C[C@H](O)CC[C@]4(C)[C@H]3C[C@H](O)[C@]12C	–	–	human, plasma	control	mean daily plasma concentration	45.3 ± 9.3 nM

Excerpt of the above:
SMILES	target or system	test	system	setting	quantity	result
C[C@H](CCC(=O)O)[C@H]1CC[C@H]2[C@@H]3[C@H](O)C[C@@H]4C[C@H](O)CC[C@]4(C)[C@H]3C[C@H](O)[C@]12C	–	–	human, plasma	control	mean daily plasma concentration	45.3 ± 9.3 nM
